Measurements gathered from unrelated publications.
Lines come from different studies, so protocols differ. “And” joins repeats or separate records; there may be more than shown. ± marks the error that the study gave.
Sequence of UniProt Q12809 (whole entry, looked up): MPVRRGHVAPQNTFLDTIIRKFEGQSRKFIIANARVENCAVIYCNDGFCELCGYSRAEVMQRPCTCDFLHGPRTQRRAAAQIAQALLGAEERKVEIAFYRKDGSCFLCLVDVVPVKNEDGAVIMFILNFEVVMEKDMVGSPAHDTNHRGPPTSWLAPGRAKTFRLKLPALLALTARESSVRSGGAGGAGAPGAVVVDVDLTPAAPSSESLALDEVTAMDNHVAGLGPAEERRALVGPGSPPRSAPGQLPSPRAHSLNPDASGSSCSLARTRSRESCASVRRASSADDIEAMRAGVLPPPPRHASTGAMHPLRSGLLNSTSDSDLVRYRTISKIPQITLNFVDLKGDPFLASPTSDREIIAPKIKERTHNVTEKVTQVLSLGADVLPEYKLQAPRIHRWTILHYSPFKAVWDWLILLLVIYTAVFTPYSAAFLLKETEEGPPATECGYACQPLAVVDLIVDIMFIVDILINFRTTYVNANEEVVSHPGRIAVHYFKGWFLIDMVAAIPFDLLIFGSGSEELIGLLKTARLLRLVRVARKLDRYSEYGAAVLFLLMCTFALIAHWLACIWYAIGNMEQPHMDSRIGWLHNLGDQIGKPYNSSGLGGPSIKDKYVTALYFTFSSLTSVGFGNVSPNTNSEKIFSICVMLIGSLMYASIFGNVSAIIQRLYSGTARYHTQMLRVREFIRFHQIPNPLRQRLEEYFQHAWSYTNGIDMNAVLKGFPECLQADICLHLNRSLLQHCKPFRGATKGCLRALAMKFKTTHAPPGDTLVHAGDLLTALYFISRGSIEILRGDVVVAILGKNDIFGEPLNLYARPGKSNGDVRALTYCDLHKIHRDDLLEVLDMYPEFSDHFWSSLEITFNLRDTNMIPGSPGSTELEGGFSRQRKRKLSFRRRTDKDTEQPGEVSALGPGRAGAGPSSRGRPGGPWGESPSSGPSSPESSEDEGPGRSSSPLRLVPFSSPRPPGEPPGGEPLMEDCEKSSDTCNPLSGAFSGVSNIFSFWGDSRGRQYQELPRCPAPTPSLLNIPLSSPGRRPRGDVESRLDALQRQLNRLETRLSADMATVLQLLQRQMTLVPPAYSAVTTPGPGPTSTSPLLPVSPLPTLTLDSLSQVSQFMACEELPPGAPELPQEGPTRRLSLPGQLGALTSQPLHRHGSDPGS

O=C[C@H](C[C@@H]1CCNC1=O)NC(=O)[C@H](CC1CCCCC1)NC(=O)c1cc2ccccc2[nH]1
AUC (rats, plasma; intravenous, 16 mg/kg): 10.6 µg·h/mL

Cc1cc(C)c(CNC(=O)c2cc(Cl)c3c(c2C)O[C@@](C)([C@H]2CC[C@H](N(C)C)CC2)O3)c(=O)[nH]1
patients with TEAE (item: COVID-19; human patients; oral, 200 mg once daily, 1 day onset day 14): 0%

Cc1ncc2n1-c1ccc(Cl)cc1C(c1ccccc1F)=NC2
Cmax (healthy male humans, plasma; oral, dose not given, phase I DDI study, with: vericiguat): 20.9 ng/mL

CC(C)(C)[C@H](NC(=O)C(F)(F)F)C(=O)N1C[C@H]2[C@@H]([C@H]1C(=O)N[C@H](C#N)C[C@@H]1CCNC1=O)C2(C)C
unbound fraction (human liver microsomes; protein 1 mg/mL): 0.824

Cn1cnc(Cn2c(=O)[nH]/c(=N\c3cc4cn(C)nc4cc3Cl)n(Cc3cc(F)c(F)cc3F)c2=O)n1
AUC(0-tau) (healthy Japanese adults, plasma; oral, 250 mg, day 5, fasted, with prednisolone): 997 µg·h/mL

C=C(C[C@@]12C[C@@H](C)C[C@H](O1)[C@H]1O[C@]3(C[C@H]1O2)NC[C@H](C)C[C@@H]3C)[C@H]1O[C@@](O)([C@@H](O)[C@@H]2C[C@H]3O[C@@]4(CC[C@]5(CC=C[C@@H](/C=C/CCC(=O)O)O5)O4)[C@H](C)C[C@H]3O2)[C@H](C)C[C@@H]1C
IC50 (Voltage-gated inwardly rectifying potassium channel KCNH2 (KCNH2, Homo sapiens, UniProt Q12809); ion current, inhibitor, thallium flux; HEK293 expressing hERG; 15 min): 4.2 µM

CC[C@H](C)[C@H](NC(=O)[C@H](CC(C)C)NC(=O)[C@H](Cc1c[nH]c2ccccc12)NC(=O)[C@H](CCC(N)=O)NC(=O)[C@@H](NC(=O)[C@H](Cc1ccccc1)NC(=O)[C@H](C)NC(=O)[C@H](CCCCNC(=O)COCCOCCNC(=O)COCCOCCNC(=O)CC[C@H](NC(=O)CCCCCCCCCCCCCCCCCCC(=O)O)C(=O)O)NC(=O)[C@H](CCC(N)=O)NC(=O)[C@H](C)NC(=O)[C@@H](NC(=O)[C@H](CCCCN)NC(=O)[C@H](CC(=O)O)NC(=O)[C@H](CC(C)C)NC(=O)C(C)(C)NC(=O)[C@@H](NC(=O)[C@H](CO)NC(=O)[C@H](Cc1ccc(O)cc1)NC(=O)[C@H](CC(=O)O)NC(=O)[C@H](CO)NC(=O)[C@@H](NC(=O)[C@H](Cc1ccccc1)NC(=O)[C@@H](NC(=O)CNC(=O)[C@H](CCC(=O)O)NC(=O)C(C)(C)NC(=O)[C@@H](N)Cc1ccc(O)cc1)[C@@H](C)O)[C@@H](C)O)[C@@H](C)CC)[C@@H](C)CC)C(C)C)C(=O)N[C@@H](C)C(=O)NCC(=O)NCC(=O)N1CCC[C@H]1C(=O)N[C@@H](CO)C(=O)N[C@@H](CO)C(=O)NCC(=O)N[C@@H](C)C(=O)N1CCC[C@H]1C(=O)N1CCC[C@H]1C(=O)N1CCC[C@H]1C(=O)N[C@@H](CO)C(N)=O
subjects with adverse events (item: Diarrhoea; healthy subjects; 5/5/8/10 mg titrated, multiple ascending dose): 28.6%

C[C@@H]1Cc2c(Cl)cc(C(=O)N[C@H](Cc3ccccc3)C(=O)O)c(O)c2C(=O)O1
body weight to egg weight ratio (chicken embryo; in ovo injection, 0.25 µg/egg): 72.3 ± 4

CC(C)C(=O)OC[C@H]1O[C@@H](n2ccc(NO)nc2=O)[C@H](O)[C@@H]1O
remaining compound (rat plasma; 100 µM, 1 h, with: digitonin 100 µM): 0%

Cc1cc(C)c(CNC(=O)c2cc(Cl)c3c(c2C)O[C@@](C)([C@H]2CC[C@H](N(C)C)CC2)O3)c(=O)[nH]1
COVID-19 pneumonia incidence (human, relapsed/refractory NHL; concentration not given, treatment-related TEAEs, grade 3): 0%

C[C@@H]1COCCN1c1cc(C2([S@](C)(=N)=O)CC2)nc(-c2cc[nH]c3nccc2-3)n1
COVID-19 incidence (Japanese advanced solid tumour patients; oral, 240 mg twice daily, any grade): 16.7%

CC(C)(C)[C@H](NC(=O)C(F)(F)F)C(=O)N1C[C@H]2[C@@H]([C@H]1C(=O)N[C@H](C#N)C[C@@H]1CCNC1=O)C2(C)C
participants discontinued due to adverse events (human, fasted; oral, 1500 mg single dose, 28 days, no ritonavir): 0%

Nc1ncnc2c([C@@H]3N[C@H](CO)[C@@H](O)[C@H]3O)c[nH]c12
inhibition (Nipah henipavirus; viral replication; HeLa, Malaysia; 6.3 µM): 3.8%

CNC(=O)[C@@H](NC(=O)[C@H](CC(C)C)[C@H](O)C(=O)NO)C(C)(C)C
remaining activity (Daboia russelii venom proteases (SVMP); protease activity, inhibitor; KL population; 0.1 µM, with: azocasein substrate; relative to: venom alone): 74.5% and 76.7% and 74.7%

Cn1cnc(Cn2c(=O)[nH]/c(=N\c3cc4cn(C)nc4cc3Cl)n(Cc3cc(F)c(F)cc3F)c2=O)n1
Cmax (human, normal renal function; oral, 375 mg, single dose, geometric mean): 15500 ng/mL

COc1cc2c(cc1O)[C@@H](Cc1ccc(O)c(Oc3ccc(C[C@@H]4c5cc(OC)c(OC)cc5CCN4C)cc3)c1)N(C)CC2
Kd (Spike glycoprotein (Severe acute respiratory syndrome coronavirus 2, UniProt P0DTC2); binding, biolayer interferometry): 139 µM

COc1cc2c(cc1OC)-c1c(C)c3ccc(OC)c(OC)c3c[n+]1CC2
inhibition (Replicase polyprotein 1ab, main protease (rep, Severe acute respiratory syndrome coronavirus 2, UniProt P0DTD1); reporter gene (mKate2), inhibitor; 20 µM): -0.264%

C[C@H]1CN(C(=O)CC#N)[C@]12CCN(c1ncnc3[nH]ccc13)C2
participants with positive SARS-CoV-2 test (human; oral, 1.5 mg single dose): 0%

Cc1cn([C@H]2O[C@@H](CO[P@@](=O)(N[C@@H](C)C(=O)OC(C)C)Oc3ccccc3)[C@H](O)[C@H]2F)c(=O)[nH]c1=O
patients with TEAE (item: COVID-19 infection; human; 50 mg): 17%

Excerpt of the above:
Cc1cn([C@H]2O[C@@H](CO[P@@](=O)(N[C@@H](C)C(=O)OC(C)C)Oc3ccccc3)[C@H](O)[C@H]2F)c(=O)[nH]c1=O
patients with TEAE (item: COVID-19 infection; human; 50 mg): 17%
